Experimental data collected from several papers.
Every numbered part comes from another study and shows a few of its results, in no order.

Study 1
Target: Histone acetyltransferase KAT6A, winged helix 1, GST fusion (KAT6A, Homo sapiens, UniProt Q92794, residues 1-85)
Method: protein binding microarray
Form: double-stranded DNA, one strand shown
Sample: in vitro
Concentration: not given
Notes: 8-mer, flanks averaged, mean of 2 arrays, mostly near background
Relative to: not given
Reading: higher = stronger binding
Measurement: E-score
Construct (chain): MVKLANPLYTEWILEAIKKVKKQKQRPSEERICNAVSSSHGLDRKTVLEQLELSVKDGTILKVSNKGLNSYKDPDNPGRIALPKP
CCATATAA: -0.0836
AGCTGTTG: -0.128
CGTTTGAC: 0.11
ACGTAGAG: -0.1

Study 2
Target: TAR DNA-binding protein 43, full length, His tag (TARDBP, Homo sapiens, UniProt Q13148, residues 1-414)
Method: RNA Bind-n-Seq
Form: RNA
Sample: in vitro
Concentration: 20 nM
Notes: 6-mer, flanks averaged, single round
Added: 150 mM LiCl
Relative to: input library
Reading: higher = stronger binding
Measurement: 6-mer enrichment (R)
AGGGAC: 1.03
GACUGA: 0.947
GCCUUU: 1.07

Study 3
Target: Interferon regulatory factor 7, full length, phosphomimetic (IRF7, Homo sapiens, UniProt Q92985, residues 1-503, S101K/S471D/S472D/S475D/S476D/S477D/S483D/S484D/S487D)
Method: protein-binding microarray
Form: double-stranded DNA, one strand shown
Sample: in vitro
Concentration: 250 nM
Notes: 60-bp whole probe
Added: salmon DNA 0.4 mg/ml
Relative to: random background probes
Reading: higher = stronger binding
Measurement: log fluorescence
Residues (chain): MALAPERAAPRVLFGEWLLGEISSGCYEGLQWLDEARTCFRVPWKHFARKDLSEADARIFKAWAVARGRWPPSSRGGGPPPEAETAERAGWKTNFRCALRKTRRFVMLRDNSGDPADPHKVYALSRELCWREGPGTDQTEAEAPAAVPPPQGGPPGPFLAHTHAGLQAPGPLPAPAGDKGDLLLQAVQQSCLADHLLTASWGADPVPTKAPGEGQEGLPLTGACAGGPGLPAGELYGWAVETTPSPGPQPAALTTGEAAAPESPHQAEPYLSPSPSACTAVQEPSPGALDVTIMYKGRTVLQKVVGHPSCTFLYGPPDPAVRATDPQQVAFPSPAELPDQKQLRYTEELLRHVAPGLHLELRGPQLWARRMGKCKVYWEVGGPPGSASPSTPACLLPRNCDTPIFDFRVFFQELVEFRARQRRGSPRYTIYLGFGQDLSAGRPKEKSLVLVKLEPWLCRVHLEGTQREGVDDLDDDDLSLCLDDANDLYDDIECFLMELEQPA
GCCTAGCACTTAGGACTGTGTCTCGGTTAGTGCTAGGTCTTGATTCGCTTGACGCTGCTG: 0.403 z-score
GCCTAGCACTTTTTTTTTTTTTGGAATGTGTGCTAGGTCTTGATTCGCTTGACGCTGCTG: 0.811 z-score
GCCTAGCACGAAGGACTGGGGTTTCGGGACGTGCTAGTCTTGATTCGCTTGACGCTGCTG: 1.14 z-score
GCCTAGCACGACGATATCGGGCCTGGAGACGTGCTAGTCTTGATTCGCTTGACGCTGCTG: -0.522 z-score

Mixed results
PhoQ, residues 284 288 289 292 302 303 SNSSNI  fold induction (PhoP, residues 12 14 15 18 19 NQGLL (Escherichia coli, UniProt P23836); Sort-seq, measured: YFP reporter; E. coli; PhoQ-PhoP variant library, added: 10 µM Mg2+; relative to: high Mg2+ state, higher = stronger signaling): 1.91

A few entries again (study 1):
ACGTAGAG: -0.1
